Experimental data of several laboratories.
Parts stem from different laboratories: compare values within a part only. “And” joins repeats or separate records; there may be more than shown.
Sequence of UniProt Q99640 (whole entry, looked up): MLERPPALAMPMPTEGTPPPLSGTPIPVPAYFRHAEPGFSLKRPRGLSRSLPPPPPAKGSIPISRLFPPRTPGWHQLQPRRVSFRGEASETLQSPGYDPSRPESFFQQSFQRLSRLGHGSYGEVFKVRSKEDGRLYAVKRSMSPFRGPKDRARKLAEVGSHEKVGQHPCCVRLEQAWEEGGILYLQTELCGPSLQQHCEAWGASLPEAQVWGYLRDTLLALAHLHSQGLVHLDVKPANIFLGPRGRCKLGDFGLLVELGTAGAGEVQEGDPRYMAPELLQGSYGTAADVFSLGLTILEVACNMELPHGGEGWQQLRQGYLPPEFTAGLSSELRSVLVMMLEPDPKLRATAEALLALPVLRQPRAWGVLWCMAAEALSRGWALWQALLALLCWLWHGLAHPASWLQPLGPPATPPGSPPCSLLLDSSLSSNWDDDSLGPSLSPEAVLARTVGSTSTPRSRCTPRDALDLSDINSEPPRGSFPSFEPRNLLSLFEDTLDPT
Sequence of UniProt Q13470 (whole entry, looked up): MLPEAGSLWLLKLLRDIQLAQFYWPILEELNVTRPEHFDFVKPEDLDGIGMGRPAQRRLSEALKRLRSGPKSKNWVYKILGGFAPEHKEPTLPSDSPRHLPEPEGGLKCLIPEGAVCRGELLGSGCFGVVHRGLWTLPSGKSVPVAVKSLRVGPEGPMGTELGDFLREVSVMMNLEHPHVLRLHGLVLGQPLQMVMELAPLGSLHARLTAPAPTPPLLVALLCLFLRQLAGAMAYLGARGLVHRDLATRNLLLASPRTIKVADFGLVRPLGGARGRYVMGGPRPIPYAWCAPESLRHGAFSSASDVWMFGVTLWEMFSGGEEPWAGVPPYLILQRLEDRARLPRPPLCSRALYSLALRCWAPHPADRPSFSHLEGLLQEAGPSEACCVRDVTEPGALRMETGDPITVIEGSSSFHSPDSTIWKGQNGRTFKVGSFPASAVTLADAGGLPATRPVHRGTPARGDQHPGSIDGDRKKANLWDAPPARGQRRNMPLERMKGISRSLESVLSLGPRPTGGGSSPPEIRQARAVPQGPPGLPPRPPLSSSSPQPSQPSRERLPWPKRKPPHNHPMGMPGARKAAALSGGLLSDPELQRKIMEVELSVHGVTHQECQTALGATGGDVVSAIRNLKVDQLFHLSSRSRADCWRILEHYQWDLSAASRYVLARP
Sequence of UniProt P08581 (whole entry, looked up): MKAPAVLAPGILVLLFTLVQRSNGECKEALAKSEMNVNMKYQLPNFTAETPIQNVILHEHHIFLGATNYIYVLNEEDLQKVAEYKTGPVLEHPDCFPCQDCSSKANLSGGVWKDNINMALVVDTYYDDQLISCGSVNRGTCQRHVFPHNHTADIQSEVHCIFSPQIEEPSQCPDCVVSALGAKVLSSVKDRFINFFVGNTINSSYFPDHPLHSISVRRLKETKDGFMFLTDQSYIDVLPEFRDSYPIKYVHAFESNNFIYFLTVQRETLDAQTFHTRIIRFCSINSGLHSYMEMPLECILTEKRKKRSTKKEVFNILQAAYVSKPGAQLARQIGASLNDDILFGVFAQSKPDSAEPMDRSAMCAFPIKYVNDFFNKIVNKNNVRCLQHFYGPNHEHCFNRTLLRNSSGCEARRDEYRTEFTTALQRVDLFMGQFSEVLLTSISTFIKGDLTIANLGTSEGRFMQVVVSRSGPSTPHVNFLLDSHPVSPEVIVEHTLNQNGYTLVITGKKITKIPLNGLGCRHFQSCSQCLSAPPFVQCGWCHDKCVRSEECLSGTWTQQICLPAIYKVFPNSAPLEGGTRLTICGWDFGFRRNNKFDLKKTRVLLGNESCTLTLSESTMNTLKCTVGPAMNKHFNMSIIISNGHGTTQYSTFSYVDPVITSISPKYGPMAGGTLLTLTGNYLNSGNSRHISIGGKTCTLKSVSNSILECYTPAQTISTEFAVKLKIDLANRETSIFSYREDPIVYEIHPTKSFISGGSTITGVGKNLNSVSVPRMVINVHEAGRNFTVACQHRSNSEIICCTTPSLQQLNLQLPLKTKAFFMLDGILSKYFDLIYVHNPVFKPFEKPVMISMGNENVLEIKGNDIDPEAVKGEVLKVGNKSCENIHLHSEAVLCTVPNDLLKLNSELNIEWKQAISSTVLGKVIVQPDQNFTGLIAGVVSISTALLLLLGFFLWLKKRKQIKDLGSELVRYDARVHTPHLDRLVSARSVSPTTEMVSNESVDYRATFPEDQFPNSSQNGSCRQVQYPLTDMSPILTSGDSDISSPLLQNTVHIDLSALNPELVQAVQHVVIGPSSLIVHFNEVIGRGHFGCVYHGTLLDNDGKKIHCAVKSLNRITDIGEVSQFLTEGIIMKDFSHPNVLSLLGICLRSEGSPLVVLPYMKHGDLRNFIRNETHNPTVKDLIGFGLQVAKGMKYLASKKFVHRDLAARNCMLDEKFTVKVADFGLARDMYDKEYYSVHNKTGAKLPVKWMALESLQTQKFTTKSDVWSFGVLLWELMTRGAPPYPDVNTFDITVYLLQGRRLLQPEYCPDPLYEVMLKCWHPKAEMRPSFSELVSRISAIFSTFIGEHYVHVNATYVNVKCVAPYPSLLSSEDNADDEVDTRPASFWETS
Sequence of UniProt P42681 (whole entry, looked up): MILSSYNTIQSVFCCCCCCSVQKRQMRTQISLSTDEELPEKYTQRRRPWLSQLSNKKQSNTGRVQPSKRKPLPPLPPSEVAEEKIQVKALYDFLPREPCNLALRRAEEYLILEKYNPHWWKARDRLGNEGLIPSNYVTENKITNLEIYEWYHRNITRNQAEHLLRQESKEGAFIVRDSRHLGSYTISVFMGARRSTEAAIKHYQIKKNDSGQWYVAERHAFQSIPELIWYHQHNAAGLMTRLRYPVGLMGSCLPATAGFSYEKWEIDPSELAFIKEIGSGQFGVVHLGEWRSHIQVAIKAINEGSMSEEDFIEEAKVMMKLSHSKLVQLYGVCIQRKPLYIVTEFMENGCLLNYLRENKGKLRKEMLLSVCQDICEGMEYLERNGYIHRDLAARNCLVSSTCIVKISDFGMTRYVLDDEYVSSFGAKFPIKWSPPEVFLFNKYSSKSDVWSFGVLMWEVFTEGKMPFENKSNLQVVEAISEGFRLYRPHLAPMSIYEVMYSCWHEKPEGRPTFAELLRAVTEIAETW
Sequence of UniProt P11309 (whole entry, looked up): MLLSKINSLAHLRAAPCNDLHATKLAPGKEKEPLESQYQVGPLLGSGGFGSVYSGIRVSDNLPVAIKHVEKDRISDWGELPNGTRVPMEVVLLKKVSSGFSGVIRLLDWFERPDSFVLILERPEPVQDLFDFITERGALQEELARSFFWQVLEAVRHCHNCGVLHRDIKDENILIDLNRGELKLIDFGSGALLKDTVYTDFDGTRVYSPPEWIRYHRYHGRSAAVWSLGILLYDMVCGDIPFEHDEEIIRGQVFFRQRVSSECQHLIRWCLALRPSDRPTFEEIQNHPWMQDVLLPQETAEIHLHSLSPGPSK
Sequence of UniProt P14616 (whole entry, looked up): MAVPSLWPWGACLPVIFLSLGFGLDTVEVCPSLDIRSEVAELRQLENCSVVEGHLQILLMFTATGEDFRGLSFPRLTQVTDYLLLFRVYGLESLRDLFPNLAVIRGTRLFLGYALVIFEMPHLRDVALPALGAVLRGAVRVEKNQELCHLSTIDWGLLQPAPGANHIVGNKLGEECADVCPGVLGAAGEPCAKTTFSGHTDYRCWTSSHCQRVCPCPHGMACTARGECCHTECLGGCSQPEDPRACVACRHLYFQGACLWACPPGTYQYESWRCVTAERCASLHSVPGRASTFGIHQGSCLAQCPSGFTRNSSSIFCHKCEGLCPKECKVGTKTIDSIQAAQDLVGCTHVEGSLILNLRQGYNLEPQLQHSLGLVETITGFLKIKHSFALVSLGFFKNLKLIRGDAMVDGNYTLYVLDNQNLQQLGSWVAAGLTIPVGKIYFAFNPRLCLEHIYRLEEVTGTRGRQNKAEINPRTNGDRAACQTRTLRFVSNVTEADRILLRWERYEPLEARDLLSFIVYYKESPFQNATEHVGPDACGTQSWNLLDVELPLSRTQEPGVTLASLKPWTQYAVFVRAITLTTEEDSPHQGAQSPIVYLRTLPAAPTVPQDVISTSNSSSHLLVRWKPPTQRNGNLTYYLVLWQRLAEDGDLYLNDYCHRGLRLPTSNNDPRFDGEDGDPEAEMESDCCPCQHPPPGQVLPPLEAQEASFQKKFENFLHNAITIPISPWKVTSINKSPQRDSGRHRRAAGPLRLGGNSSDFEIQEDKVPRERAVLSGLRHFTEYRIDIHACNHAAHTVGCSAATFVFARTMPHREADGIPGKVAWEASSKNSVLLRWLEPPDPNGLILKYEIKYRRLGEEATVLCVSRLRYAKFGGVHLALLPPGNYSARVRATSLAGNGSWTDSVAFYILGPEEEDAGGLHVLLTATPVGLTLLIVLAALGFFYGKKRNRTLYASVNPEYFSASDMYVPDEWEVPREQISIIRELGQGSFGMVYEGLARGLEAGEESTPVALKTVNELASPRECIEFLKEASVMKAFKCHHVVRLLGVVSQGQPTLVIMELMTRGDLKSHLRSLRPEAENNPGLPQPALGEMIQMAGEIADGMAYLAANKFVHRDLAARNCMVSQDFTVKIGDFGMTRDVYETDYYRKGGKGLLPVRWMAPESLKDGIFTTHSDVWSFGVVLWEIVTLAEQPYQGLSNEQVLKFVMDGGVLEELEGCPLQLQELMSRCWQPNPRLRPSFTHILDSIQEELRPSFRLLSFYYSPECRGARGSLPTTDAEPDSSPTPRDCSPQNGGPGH
Sequence of UniProt P50613 (whole entry, looked up): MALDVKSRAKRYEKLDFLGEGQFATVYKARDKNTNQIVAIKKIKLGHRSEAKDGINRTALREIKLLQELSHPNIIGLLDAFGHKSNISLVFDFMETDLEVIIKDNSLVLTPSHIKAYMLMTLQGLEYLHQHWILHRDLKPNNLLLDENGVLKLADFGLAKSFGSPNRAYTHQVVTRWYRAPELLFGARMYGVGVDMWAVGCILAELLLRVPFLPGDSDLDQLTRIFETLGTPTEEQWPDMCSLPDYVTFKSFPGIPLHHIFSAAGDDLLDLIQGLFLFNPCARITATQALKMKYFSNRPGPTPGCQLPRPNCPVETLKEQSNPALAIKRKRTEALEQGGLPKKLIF

Sample 1
SMILES: CS(=O)(=O)c1cc(C2(NC(=O)c3cncc4c3cnn4-c3ccc(F)cc3)CC2)ccn1
Observed: cell-free assay
Technique: competition with immobilised ligand
Concentration: 1 µM
Endpoint: remaining binding
target = KIT (Homo sapiens, UniProt P10721, V559D); value = 100%
target = TNK1 (Homo sapiens, UniProt Q13470); value = 80%
target = TXK (Homo sapiens, UniProt P42681); value = 89%
target = EGFR (Homo sapiens, UniProt P00533, del747-752/P753S); value = 66%
target = MET (Homo sapiens, UniProt P08581); value = 100%
target = PKMYT1 (Homo sapiens, UniProt Q99640); value = 85%
target = INSRR (Homo sapiens, UniProt P14616); value = 65%
target = TYRO3 (Homo sapiens, UniProt Q06418); value = 91%
target = CDK7 (Homo sapiens, UniProt P50613); value = 90%
target = Ribosomal protein S6 kinase alpha-6, C-terminal kinase domain (RPS6KA6, Homo sapiens, UniProt Q9UK32); value = 64%
target = PRKACB (Homo sapiens, UniProt P22694); value = 100%
target = CDKL3 (Homo sapiens, UniProt Q8IVW4); value = 96%
target = PIM1 (Homo sapiens, UniProt P11309); value = 100%
target = Tyrosine-protein kinase ABL1, non-phosphorylated (ABL1, Homo sapiens, UniProt P00519); value = 86%
target = MAP3K6 (Homo sapiens, UniProt O95382); value = 100%

Sample 2
Species: mouse
Matrix: microsomes or S9
Concentration: 2 µM
Time: 0.5 h
Endpoint: remaining compound
Compound = COc1ccc(NC(=O)CCc2c(C)n(Cc3ccccc3)c3nc(-c4ccccc4)nn3c2=O)cc1; value = 1.71%
Compound = CC1(C)CC(=O)C2=C(C1)c1c(ccc3ccccc13)NC2c1cccnc1 (stereo not shown); value = 17.9%
Compound = CC(C)(C)NC(=O)CN1CCN(c2cc(C(=O)O)c3cc(NS(=O)(=O)c4ccc(F)cc4)ccc3n2)CC1; value = 81.5%
Compound = O=C(c1ccc(=O)[nH]c1)N1CCN(c2ncc(Cl)cn2)CC1; value = 91.4%
Compound = CN(Cc1cccnc1)C(=O)c1c(OCC2CC2)cc(=O)n2c1CCCCC2; value = 5.33%
Compound = COC(=O)c1ccc(-c2noc(C(C)C)n2)cc1Cl; value = 0%
Compound = CSc1ncc(Br)c(OC(C)C)n1; value = 44%
Compound = CC(C)(C)n1cc(/C=C/c2ncc(Br)s2)nn1; value = 94.9%
Compound = O=[N+]([O-])c1c(Nc2cc(F)cc(Cl)c2)ccc2nonc12; value = 11.3%
Compound = CCOC(=O)CC1C(=O)NCCN1S(=O)(=O)c1ccc(C)cc1 (stereo not shown); value = 24%
Compound = CC(C)N(c1cnn(C)c1)S(=O)(=O)c1cn(C(C)C)cn1; value = 77.3%
Compound = CCN(C(=O)c1cc(C)c(C)[nH]c1=O)[C@H]1COC[C@@H]1O; value = 97.6%
Compound = Cc1cc(CNc2ccc(-c3nc(CCCc4ccccc4)no3)cn2)n[nH]1; value = 47.2%
Compound = O=C1CC2CS(=O)(=O)CC2N1C1CCCCC1 (stereo not shown); value = 66.5%
Compound = O=C(NC1CCS(=O)(=O)C1)c1ccc(Br)cc1 (stereo not shown); value = 97.2%
Compound = COc1cccc(-c2csc3[nH]cnc(=O)c23)c1; value = 1.37%
Compound = COc1ccc(S(=O)(=O)N(C)c2ccc(C(=O)Nc3ccccc3-c3ccccc3)cc2)cc1; value = 0.389%

Sample 3
Organism: Sarcocystis neurona
Observed: parasite growth
Concentration: 10 µM
Time: 96 h
Notes: first screen
Endpoint: inhibition
SMILES = CC1CNc2c(cccc2S(=O)(=O)N[C@@H](CCCNC(=N)N)C(=O)N2CC[C@@H](C)C[C@@H]2C(=O)O)C1 (stereo partly shown); value = 14.2%
SMILES = O=C1C(CC[S+]([O-])c2ccccc2)C(=O)N(c2ccccc2)N1c1ccccc1 (stereo not shown); value = -12.9%
SMILES = Cc1cnc(C(=O)NCCc2ccc(S(=O)(=O)NC(=O)NC3CCCCC3)cc2)cn1; value = -24.3%
SMILES = CC(C[N+](C)(C)C)OC(N)=O (stereo not shown); value = -8.4%
SMILES = CN(C)CC/C=C1/c2ccccc2COc2ccc(CC(=O)O)cc21; value = 11.8%
SMILES = C[C@](N)(Cc1ccc(O)c(O)c1)C(=O)O; value = -17.2%
SMILES = C=C(CC)C(=O)c1ccc(OCC(=O)O)c(Cl)c1Cl; value = -16.6%
SMILES = CC(Oc1c(Cl)cccc1Cl)C1=NCCN1 (stereo not shown); value = 7.7%
SMILES = CN(C)c1nc(N(C)C)nc(N(C)C)n1; value = -21.9%
SMILES = O=C1CCC(N2C(=O)c3ccccc3C2=O)C(=O)N1 (stereo not shown); value = -16.4%
SMILES = C=CC1=C(C(=O)O)N2C(=O)[C@@H](NC(=O)/C(=N\O)c3csc(N)n3)[C@H]2SC1; value = -23.2%
SMILES = Cn1cc[nH]c1=S; value = -1.7%
SMILES = CCS(=O)(=O)CCn1c([N+](=O)[O-])cnc1C; value = 4.3%
SMILES = Nc1nc(=O)c2nc(CNc3ccc(C(=O)N[C@@H](CCC(=O)O)C(=O)O)cc3)cnc2[nH]1; value = -27.9%
SMILES = COc1ccccc1N1CCN(CC(O)COc2cccc3ccccc23)CC1 (stereo not shown); value = 12.2%
SMILES = CC(C(=O)O)c1ccc(-c2ccccc2)c(F)c1 (stereo not shown); value = 0.4%
SMILES = COc1c2occc2cc2ccc(=O)oc12; value = -6.6%

Sample 4
SMILES: CCC[C@H]1NC(=O)[C@H](Cc2cc(Cl)ccc2-c2cnn(C)c2)N(C)C(=O)[C@H](CC(C)C)NC(=O)[C@@H](N(C)C(=O)[C@H](CCCCN2CCOCC2)NC(=O)[C@@H](c2cccnc2)C2CCCCC2)CCCCNC1=O
Cell line: NCI-H446
Time: 5 days
Reference: DMSO
Endpoint: cell growth
assay = cell counting; conditions = 371 nM; value = 79.4% and 74.1%
assay = cell counting; conditions = 10 µM; value = 22.2% and 21.6%
assay = cell counting; conditions = 1.11 µM; value = 83.1% and 78.3%
assay = cell counting; conditions = 124 nM; value = 89.5% and 77.3%
assay = Vi-Cell counting; conditions = 41.1 nM, with: Myt1 inhibitor 1000 nM; value = 69.4% and 57.1%
assay = cell counting; conditions = 4.57 nM; value = 81.1% and 86%
